# Experimental data pooled from the literature.
# Each numbered part is a random draw from the data of one study; scales do not carry over between parts.
# Chain of UniProt P28223 (whole entry, looked up): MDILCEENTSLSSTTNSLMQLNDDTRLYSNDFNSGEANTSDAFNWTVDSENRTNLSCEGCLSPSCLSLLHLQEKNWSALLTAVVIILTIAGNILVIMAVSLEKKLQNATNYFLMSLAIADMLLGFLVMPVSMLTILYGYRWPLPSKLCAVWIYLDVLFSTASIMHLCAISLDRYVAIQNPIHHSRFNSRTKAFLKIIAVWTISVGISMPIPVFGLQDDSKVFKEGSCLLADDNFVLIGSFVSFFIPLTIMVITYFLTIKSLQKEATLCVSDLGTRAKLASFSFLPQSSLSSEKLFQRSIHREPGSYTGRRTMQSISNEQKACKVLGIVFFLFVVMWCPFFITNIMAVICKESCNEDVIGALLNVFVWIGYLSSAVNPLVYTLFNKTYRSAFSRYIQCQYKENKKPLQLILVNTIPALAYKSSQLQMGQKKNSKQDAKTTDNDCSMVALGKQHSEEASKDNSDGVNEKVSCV

# Study 1 — effect on: enzyme activity; mode: inhibitor; tested at: 10 µM
# Target: Calcium/calmodulin-dependent protein kinase type II subunit alpha (CAMK2A, Homo sapiens, UniProt Q9UQM7)
# Chain of UniProt Q9UQM7 (whole entry, looked up): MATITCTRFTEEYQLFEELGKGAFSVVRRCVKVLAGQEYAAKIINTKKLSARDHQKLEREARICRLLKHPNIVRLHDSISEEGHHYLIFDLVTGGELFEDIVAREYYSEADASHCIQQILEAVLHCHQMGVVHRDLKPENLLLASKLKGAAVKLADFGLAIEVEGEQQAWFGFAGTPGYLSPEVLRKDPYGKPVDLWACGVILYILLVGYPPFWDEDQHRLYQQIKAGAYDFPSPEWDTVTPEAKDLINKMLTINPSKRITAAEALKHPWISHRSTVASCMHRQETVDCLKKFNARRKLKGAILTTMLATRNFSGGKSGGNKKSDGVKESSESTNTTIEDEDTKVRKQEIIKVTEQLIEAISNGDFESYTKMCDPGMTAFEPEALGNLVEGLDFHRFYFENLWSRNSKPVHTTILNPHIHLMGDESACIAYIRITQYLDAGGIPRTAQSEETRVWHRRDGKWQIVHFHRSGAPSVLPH
Compound,inhibition [%]
Nc1ncnc(N)c1NC=O,-1
CCC(O)CC(=O)O (stereo not shown),-14
COc1cc2c(CCNC(C)=O)c[nH]c2cc1O,-14
C[C@H]1c2cccc(O)c2C(=O)C2=C(O)[C@]3(O)C(=O)C(C(N)=O)=C(O)[C@@H](N(C)C)[C@@H]3[C@@H](O)[C@@H]21,-8
CSCCC(NC(C)=O)C(=O)O (racemic),-5
COc1ccc2nccc(C(=O)O)c2c1,17
CC(C)(O[C@@H]1O[C@H](CO)[C@@H](O)[C@H](O)[C@H]1O)[C@H]1Oc2cc3oc(=O)ccc3cc2[C@H]1O,-6
CN1C[C@@H]2C[C@H]1CN2c1cc2c(cc1F)c(=O)c(C(=O)O)cn2C1CC1,0

# Study 2 — cell line: A-375; tested at: 100 µM; time: 36 h
SMILES,viability
NC[C@@H]1O[C@H](O[C@H]2[C@@H](O)[C@H](O[C@@H]3[C@@H](O)[C@H](N)C[C@H](N)[C@H]3O[C@H]3O[C@H](CO)[C@@H](O)[C@H](O)[C@H]3N)O[C@@H]2CO)[C@H](N)[C@@H](O)[C@@H]1O,91.2%
C#C[C@]1(O)CC[C@H]2[C@@H]3CCC4=CC(=O)CC[C@@H]4[C@H]3C(=C)C[C@@]21CC,62.5%
OC[C@H]1O[C@@H](Oc2ccc(O)cc2)[C@H](O)[C@@H](O)[C@@H]1O,123%
CC1=C(C(=O)O)N2C(=O)[C@@H](NC(=O)[C@H](N)C3=CCC=CC3)[C@H]2SC1,114%
O=C1O[C@H](CO)[C@@H](O)[C@H](O)[C@H]1O,109%
O=C(Nc1ccccc1)c1ccccc1O,20.4%
CC(C)/N=c1\cc2n(-c3ccc(Cl)cc3)c3ccccc3nc-2cc1Nc1ccc(Cl)cc1,8.94%
O=C(CO)[C@@H](O)[C@H](O)[C@H](O)CO,90.6%

# Study 3 — Compound: C=CCc1ccc(O)c(-c2cc(CC=C)ccc2O)c1; effect on: chloride current; technique: whole-cell voltage clamp
# ANO1 del476-501/E649I: Anoctamin-1 (ANO1, Homo sapiens, UniProt Q5XXA6, del476-501/E649I)
# Chain of UniProt Q5XXA6 (whole entry, unmodified, looked up): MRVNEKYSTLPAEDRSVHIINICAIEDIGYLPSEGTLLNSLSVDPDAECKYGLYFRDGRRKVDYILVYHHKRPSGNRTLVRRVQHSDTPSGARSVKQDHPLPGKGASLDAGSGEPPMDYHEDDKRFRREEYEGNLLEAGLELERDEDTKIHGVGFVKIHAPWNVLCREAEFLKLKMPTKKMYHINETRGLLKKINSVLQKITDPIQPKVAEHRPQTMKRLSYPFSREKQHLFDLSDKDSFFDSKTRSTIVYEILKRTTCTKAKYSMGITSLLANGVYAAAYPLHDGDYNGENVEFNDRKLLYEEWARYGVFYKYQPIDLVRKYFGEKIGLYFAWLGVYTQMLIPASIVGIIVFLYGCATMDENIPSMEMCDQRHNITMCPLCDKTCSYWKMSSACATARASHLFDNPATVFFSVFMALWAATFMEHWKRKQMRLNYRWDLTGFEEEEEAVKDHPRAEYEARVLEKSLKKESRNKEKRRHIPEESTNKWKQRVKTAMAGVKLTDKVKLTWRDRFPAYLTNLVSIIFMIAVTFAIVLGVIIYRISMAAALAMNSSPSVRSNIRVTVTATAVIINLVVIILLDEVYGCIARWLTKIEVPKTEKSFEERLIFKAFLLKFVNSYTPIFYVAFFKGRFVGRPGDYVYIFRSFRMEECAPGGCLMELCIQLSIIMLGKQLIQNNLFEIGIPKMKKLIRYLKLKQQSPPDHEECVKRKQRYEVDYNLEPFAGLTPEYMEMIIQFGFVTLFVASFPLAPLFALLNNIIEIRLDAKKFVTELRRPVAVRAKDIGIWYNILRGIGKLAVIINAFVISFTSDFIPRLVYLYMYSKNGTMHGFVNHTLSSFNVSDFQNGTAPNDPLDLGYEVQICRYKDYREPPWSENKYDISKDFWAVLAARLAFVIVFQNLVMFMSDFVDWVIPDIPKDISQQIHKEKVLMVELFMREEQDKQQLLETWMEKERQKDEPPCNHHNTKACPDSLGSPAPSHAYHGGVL
# ANO1 del476-501/F627A: Anoctamin-1 (ANO1, Homo sapiens, UniProt Q5XXA6, del476-501/F627A)
target,mode,setting,together with,IC50 [µM]
"Anoctamin-1 (ANO1, Homo sapiens, UniProt Q5XXA6, del476-501/M544A)",,membrane voltage -100 mV,,129
"Anoctamin-1 (ANO1, Homo sapiens, UniProt Q5XXA6, del476-501)",,membrane voltage -60 mV,300 nM Ca2+,22.7
ANO1 del476-501/E649I,inhibitor,E623I mutant at 20 mV,,132
ANO1 del476-501/F627A,,membrane voltage 100 mV,,27.7
ANO1 del476-501/F627A,,membrane voltage 80 mV,,26.2
ANO1 del476-501/F627A,,membrane voltage -100 mV,,54.2
"Anoctamin-1 (ANO1, Homo sapiens, UniProt Q5XXA6, del476-501/F803A)",,membrane voltage 40 mV,,18.1
ANO1 del476-501/E649I,inhibitor,E623I mutant at -60 mV,,134

# Single results of other studies
SMILES,target,effect on,tested at,quantity,result
CC(C)CC(=O)N1CCc2nc(-c3ccc(Br)cc3)nc(N(C)Cc3ccccc3)c2C1,"5-hydroxytryptamine receptor 2A (HTR2A, Homo sapiens, UniProt P28223)",ligand displacement,10 µM,inhibition,3%

# Excerpt of the above (study 1):
Compound,inhibition [%]
COc1ccc2nccc(C(=O)O)c2c1,17
Nc1ncnc(N)c1NC=O,-1
